# Experimental data collected from several papers.
# Every numbered part comes from another study and shows a few of its results, in no order. Substitutions count along the parent as printed.

# Block 1 — method: RNA Bind-n-Seq; form: RNA; sample: in vitro; concentration: 200 nM; setting: whole 134-nt RNA, ends assumed; added: 150 mM LiCl; relative to: input library; direction: higher = stronger binding; all molecules: 7-deaza-guanosine replaces G
# Target: Fragile X messenger ribonucleoprotein 1, C-terminal low-complexity region (Fmr1, Mus musculus, UniProt P35922)
Sequence,log2 enrichment
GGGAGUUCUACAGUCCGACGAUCCCUCAAGUCCUGUGCUACACAUCGUAUGUACCGAAUCGGGGCGGCGGGGCGGGAAAGUAUUAUGUUACGCCGUUCGGAUCUGCACUUCCAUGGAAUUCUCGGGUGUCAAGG,-1.2
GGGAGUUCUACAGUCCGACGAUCUCCUCCCUGGCUUCAGCCAGUCCCUGACGCUGAGCACUGGCUUCCGAGUCAUCAAGAAGAAGCUGUACAGCUCGGAACAGCUGCUCAUUGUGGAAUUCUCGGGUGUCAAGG,-1.42
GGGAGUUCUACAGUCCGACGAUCAGUCCUGUGCUACACAUCGUAUGUACCGAAUCGGGGUUUGGGGAAAGGGGAAAGGGGAAAGUAUUAUGUUACGCCGUUCGGAUCUGCACUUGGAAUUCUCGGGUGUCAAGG,0.108
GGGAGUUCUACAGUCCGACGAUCCAAGUCCUGUGCUACACAUCGUAUGUACCGAAUCGGAAAGGGGAAAGGGAAAGGGAAAGUAUUAUGUUACGCCGUUCGGAUCUGCACUUCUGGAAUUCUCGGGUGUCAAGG,-0.447
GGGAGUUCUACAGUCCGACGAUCCUGUGCUACACAUCGUAUGUACCGAAUCGGGAAAAAAAGGGAAAAAAAGGGGAAAAAAAGGAAAGUAUUAUGUUACGCCGUUCGGAUCUGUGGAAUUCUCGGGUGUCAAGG,0.28
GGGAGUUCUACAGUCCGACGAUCCUGUGCUACACAUCGUAUGUACCGAAUCGGGUUUUUUUGGGUUUUUUUGGUUUUUUUGGGGAAAGUAUUAUGUUACGCCGUUCGGAUCUGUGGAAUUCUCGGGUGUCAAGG,0.556
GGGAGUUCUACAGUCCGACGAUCACCAUGCAGGUGGGCAUCUUUGGGAAUUGGGGCAAGGGGGGGAUAGGGAGGGGGGUAACACUUUGGGAACAGGUGGUCCCAGGUCGUUUCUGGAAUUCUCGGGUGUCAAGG,1.74
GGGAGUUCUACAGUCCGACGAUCCACAGACAACACGCACCCACACAGACACAGAGGGAAGGGGUUGGGAUGGGGACAGGCUGCACAGCAGGGCGGGGUAGGACCCCAGCCCCUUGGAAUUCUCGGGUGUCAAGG,-0.423
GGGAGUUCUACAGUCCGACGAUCUCCUGUGCUACACAUCGUAUGUACCGAAUCGGGGAAAAAGGGGAAAAAGGGAAAAAGGGAAAGUAUUAUGUUACGCCGUUCGGAUCUGCAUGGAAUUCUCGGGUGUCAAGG,0.3
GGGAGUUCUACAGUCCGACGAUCAAGUCCUGUGCUACACAUCGUAUGUACCGAAUCGGCCCCCGGGCCCCCGGCCCCCGGAAAGUAUUAUGUUACGCCGUUCGGAUCUGCACUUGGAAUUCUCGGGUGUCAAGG,-1.32
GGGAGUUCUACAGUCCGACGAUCUAACUUUAGAGGAGGAUCUGAUGGAUAUGGCAGUGGACGUGGAUUUGGGGAUGGCUAUAAUGGGUAUGGAAGAGGACCUGGAGGUGGCAAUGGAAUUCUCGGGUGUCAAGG,-0.0271

# Block 2 — target: CCND1, cyclin fold, Cln2 fusion (human); method: yeast growth competition, sequencing; sample: yeast; setting: weak parent motif; relative to: not given; direction: higher = stronger binding
# Starting sequence: CDC25A docking peptide (human); PPHRRRLLFACSP; partner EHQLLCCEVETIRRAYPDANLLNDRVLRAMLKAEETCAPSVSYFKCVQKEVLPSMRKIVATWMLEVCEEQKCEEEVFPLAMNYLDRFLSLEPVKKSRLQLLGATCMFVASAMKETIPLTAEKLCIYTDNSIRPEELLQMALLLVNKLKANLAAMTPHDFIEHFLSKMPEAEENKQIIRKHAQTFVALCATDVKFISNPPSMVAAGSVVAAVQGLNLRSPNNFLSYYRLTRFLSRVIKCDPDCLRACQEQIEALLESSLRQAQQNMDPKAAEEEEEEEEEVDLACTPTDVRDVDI
Change,normalised enrichment score
F9D,-0.694
C11T,-0.499
A10T,0.304
R5L,0.796
P13R,0.0776
P2L,-0.122
P2Q,0.54
R5E,-0.107

# Block 3 — method: RNA Bind-n-Seq; form: RNA; sample: in vitro; concentration: 365 nM; relative to: no-protein control; direction: higher = stronger binding
# Target: RNA binding protein fox-1 homolog 2, RRM domain, GST-SBP tag (RBFOX2, Homo sapiens, UniProt O43251-10, residues 100-194)
# Setting: natural RNA segment, single round, ends assumed
# Residues (chain): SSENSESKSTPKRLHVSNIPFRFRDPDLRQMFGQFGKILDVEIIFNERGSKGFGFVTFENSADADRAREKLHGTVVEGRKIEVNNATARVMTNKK
Sequence,RBNS enrichment (R)
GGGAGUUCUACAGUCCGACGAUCCAGAAAUUAUUUUUUGCACUUUGGCAUAAAUACUUUUCAAUAUCUGAUUUGUUCUCUGGAUAAAUUAGCAUAGUUAUUUUUUUAUUCACAUUUACAUUUCUAAGUAGUUGUGGAAUUCUCGGGUGCCAA,0.811
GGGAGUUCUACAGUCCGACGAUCCCCAGCACACUCCCUGUGGGAUGGCCGCUGCUCAGGACACAGUGGGACAAAGUUGGGUUGAUAGGAUAUUUUAGAUUCAUUUUACCUUUGACAAGGGCAGGCCUUGAAUUUGGAAUUCUCGGGUGCCAA,0.491
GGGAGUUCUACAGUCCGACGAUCCACGCAGCUCUCUGGUUAGACUUCUCCCAGGCUAUGAUCCUGGCAUGUCCUUUAUAAGGUAUACUUGGAUUGGCCGAGACCUGGCCUGGCAUCAGGAGUCCAAACCUCUGUGGAAUUCUCGGGUGCCAA,0.337
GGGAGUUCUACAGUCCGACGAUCCAGAGGGUCCCCCUUGUGGGUGCGCUUGGAUGUGCAGAGCCUUCUCCAUGGAUUUUCUUCCCUGUAAGUGCCGGGCCCCUCACCCCAGCUGACAGGCUGUUGCUGUGCCUUGGAAUUCUCGGGUGCCAA,0.274
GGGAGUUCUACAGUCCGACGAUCUUGACCCAGGCUCUUAUAGAUAGGUCCUAAACAUUGCUGUUCACUAGAUUAUCUUAACAAAUAAUACUCAGCUAAAUAUUUGCAUUUAGGAAUACUCCUAAAACAGAUAUUGGAAUUCUCGGGUGCCAA,0.501
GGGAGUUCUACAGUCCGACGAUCUUCAGUCUCUCUACCACAUUCCAUGUAAACCUAUGGUGAAGUAACACCAGAAAAAAGAGCCUGAGAGUGGUCGCUUCCAUCUUCCACUCCCCUUGUUCUUGGGGGGAAAGUGGAAUUCUCGGGUGCCAA,0.305
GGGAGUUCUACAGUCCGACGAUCAGUUGUACAAAUUGUGAUUGAGGAAAUGAAAAGGUUUAUACUUUUUAAAAAAAAAAAAACAAAAACAAAAAACAAAACUUCAAAUGGAAUAAAUUAUUCAUGAAGCCUUCUGGAAUUCUCGGGUGCCAA,1.07
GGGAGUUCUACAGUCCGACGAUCCCUCAGAACUUCAAAAGGGCAAGAUCUUUUUUCCUUCACUUAUUGCUGAAACCAAGAGCACAAUUCCCAUUAAGAGAAGGAUCUCUGUGCUGUAAACUAAACAAAUUGUGUGGAAUUCUCGGGUGCCAA,0.378
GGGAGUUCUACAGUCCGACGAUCCAUAGCAAAAAGAAAGUGGCUACAGGAUUGUGGCUAACAAGAAUAAAUACAUGGGAAAAGUGCUCCCCCUGGAAGAGUCACUGUCUGAAUGAAGCAAAGUUCCCUCUCAGUGGAAUUCUCGGGUGCCAA,0.474
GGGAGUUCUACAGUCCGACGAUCGGGGGGGCUGGGAAGUCCCCUGCAUCCCAUGGUACCCUGGUAUUGGGACAGCAAAAGCCAGUAACCAUGAGUAUGAGGAAAUCUCUUUCUGUUGCUGGCUUACAGUUUCUUGGAAUUCUCGGGUGCCAA,2.71
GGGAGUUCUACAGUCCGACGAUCCCAAAGAUGGGAUUAUUAAUCCAACUCUAGAAAGAGUCCAAAUCUUCAGCCCGUGUCUCAUACACUUGAAGAUGUCUAUAUUGAGUUUGAAGAGGUUAUAAAGGGACAGAUGGAAUUCUCGGGUGCCAA,0.298

# Further values, each from its own experiment
Molecule,target,test,system,setting,scale,quantity,value
"PhoQ, residues 284 288 289 292 302 303 AANNSF","PhoP, residues 12 14 15 18 19 NHFIF (Escherichia coli, UniProt P23836)","Sort-seq, measured: YFP reporter",E. coli,"PhoQ-PhoP variant library, added: 10 µM Mg2+","relative to: high Mg2+ state, higher = stronger signaling",fold induction,13.9
